# Measurements collected from several papers.
# Every numbered part comes from another study and shows a few of its results, in no order.
# UniProt O23661, sequence (whole entry, looked up): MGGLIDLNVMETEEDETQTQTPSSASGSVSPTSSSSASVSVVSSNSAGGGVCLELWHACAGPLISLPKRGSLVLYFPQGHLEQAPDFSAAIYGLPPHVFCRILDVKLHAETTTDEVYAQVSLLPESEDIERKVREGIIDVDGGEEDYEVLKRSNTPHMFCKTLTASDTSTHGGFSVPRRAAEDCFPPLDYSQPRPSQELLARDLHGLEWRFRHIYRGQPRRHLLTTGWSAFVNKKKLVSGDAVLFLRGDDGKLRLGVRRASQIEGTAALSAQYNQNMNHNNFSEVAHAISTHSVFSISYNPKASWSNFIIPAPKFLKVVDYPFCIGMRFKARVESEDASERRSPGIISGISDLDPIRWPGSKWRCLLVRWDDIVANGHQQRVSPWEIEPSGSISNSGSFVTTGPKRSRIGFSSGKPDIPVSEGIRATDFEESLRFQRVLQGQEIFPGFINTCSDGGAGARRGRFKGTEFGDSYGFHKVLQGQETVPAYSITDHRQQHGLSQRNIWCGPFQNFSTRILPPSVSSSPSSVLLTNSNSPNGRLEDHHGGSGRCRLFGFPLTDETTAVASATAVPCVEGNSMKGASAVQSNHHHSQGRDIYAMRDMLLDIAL
# UniProt Q9C8N7, sequence (whole entry, looked up): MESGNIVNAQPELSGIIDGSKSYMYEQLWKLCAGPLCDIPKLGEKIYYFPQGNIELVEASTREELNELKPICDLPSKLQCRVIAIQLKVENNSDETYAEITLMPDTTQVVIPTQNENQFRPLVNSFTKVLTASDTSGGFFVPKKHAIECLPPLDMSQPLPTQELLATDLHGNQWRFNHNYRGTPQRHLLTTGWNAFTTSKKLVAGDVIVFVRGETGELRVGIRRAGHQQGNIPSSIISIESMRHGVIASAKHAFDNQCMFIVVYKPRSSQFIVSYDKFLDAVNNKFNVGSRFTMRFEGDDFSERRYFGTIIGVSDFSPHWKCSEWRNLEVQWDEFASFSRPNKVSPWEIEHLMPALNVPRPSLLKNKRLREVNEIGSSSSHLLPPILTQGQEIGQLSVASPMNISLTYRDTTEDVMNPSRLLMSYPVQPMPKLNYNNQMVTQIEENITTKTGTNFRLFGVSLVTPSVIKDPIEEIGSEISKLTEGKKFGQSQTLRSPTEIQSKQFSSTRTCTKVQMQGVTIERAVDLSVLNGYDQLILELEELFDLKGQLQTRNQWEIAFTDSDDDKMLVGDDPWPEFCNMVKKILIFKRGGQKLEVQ
# UniProt Q94JM3, sequence (whole entry, looked up): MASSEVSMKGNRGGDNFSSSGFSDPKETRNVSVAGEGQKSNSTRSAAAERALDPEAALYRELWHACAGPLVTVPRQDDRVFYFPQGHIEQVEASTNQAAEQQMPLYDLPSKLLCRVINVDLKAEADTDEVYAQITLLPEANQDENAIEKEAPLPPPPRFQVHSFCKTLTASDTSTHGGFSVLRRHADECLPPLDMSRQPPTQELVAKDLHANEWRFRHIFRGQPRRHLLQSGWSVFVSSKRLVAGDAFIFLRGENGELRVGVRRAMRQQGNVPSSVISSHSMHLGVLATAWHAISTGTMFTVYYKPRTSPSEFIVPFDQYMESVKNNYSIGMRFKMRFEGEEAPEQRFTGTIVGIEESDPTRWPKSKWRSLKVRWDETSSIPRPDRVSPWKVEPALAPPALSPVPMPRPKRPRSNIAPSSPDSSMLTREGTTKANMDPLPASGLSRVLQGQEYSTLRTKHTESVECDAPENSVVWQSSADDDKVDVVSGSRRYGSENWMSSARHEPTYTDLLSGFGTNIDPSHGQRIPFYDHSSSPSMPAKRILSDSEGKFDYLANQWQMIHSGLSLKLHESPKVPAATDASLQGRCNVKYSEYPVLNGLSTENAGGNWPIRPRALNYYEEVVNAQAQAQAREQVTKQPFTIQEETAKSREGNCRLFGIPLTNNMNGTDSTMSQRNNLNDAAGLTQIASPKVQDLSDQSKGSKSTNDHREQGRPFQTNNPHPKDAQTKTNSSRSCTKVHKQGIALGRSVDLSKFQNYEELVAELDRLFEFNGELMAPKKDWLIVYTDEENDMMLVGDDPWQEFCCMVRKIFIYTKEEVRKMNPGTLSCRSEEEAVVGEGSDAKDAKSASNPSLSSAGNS
# UniProt Q84WU6, sequence (whole entry, looked up): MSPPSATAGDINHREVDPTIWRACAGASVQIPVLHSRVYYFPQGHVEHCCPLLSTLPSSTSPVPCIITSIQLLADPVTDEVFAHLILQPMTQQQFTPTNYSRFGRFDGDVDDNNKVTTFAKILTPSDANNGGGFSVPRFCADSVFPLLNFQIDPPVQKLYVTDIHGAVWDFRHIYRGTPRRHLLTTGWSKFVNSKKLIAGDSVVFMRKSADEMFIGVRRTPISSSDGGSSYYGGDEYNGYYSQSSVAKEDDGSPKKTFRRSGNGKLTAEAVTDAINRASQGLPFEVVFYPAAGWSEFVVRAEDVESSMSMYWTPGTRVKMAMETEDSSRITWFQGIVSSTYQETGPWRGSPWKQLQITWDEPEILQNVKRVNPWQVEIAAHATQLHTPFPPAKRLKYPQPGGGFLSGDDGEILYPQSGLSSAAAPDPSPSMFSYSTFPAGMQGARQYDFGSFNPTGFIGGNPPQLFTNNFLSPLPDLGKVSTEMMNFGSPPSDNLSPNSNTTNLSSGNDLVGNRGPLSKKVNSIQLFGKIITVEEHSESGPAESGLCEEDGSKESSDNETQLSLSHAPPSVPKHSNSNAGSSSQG
# UniProt P11802, sequence (whole entry, looked up): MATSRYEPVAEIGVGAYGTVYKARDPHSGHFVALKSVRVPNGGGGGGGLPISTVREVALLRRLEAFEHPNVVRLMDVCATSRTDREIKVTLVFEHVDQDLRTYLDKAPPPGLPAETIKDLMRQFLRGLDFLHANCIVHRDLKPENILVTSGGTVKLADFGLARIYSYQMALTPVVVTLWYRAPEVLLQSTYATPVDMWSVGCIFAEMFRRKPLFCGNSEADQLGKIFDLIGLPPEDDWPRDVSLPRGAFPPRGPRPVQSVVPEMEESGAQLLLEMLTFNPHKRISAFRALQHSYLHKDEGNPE
# UniProt P07949, sequence (whole entry, unmodified, looked up): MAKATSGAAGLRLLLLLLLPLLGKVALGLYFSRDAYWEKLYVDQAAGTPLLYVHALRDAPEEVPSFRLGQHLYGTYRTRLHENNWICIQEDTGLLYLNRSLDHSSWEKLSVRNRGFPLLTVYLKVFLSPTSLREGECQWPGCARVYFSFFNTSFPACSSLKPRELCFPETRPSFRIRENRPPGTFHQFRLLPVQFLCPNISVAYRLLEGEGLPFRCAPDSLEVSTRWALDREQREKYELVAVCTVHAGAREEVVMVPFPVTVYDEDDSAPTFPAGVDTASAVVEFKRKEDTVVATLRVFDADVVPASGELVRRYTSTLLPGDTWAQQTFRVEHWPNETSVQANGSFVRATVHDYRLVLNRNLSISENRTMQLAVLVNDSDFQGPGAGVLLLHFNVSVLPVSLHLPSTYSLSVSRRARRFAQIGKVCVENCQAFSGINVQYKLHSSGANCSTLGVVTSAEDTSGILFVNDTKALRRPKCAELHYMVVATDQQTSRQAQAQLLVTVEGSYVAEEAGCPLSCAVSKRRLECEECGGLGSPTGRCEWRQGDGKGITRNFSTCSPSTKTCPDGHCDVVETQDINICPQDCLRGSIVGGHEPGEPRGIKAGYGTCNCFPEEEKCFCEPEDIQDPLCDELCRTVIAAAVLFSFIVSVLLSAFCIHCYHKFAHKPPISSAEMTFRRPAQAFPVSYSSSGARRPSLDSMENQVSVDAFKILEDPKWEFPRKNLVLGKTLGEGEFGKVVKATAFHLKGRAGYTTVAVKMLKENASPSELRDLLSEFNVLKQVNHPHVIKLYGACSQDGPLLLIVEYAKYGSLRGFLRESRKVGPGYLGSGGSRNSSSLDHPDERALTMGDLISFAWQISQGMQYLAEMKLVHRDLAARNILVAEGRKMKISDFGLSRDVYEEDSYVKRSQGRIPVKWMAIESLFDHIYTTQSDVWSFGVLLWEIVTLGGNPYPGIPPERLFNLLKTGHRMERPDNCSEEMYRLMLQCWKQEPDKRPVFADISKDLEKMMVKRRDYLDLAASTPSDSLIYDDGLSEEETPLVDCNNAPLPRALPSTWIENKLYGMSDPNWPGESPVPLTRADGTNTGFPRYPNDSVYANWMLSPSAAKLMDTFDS

# Block 1 — technique: RNA Bind-n-Seq; form: RNA; sample: in vitro; concentration: 20 nM; notes: 6-mer, flanks averaged, single round; added: 150 mM KCl; reference: input library; reading: higher = stronger binding
# Target: TAR DNA-binding protein 43, full length, His tag (TARDBP, Homo sapiens, UniProt Q13148, residues 1-414)
Sequence,6-mer enrichment (R)
GGAGAC,1.59
AAGCUU,0.578
UGACUU,0.603
GAGUGC,1.53
CUGUGC,0.8
ACUUCA,0.553
UUUUCA,0.604
GGAAAA,1.08

# Block 2 — Sequence: B1 (IAA26); technique: two-hybrid; reading: higher = firmer interaction
# B1: IAA26 (Arabidopsis thaliana, UniProt Q8LAL2); chain MEGCPRNREIGPKLLDLIPQGRKWYQEDKNNTDQEKKLELRLGPPGGDEEDHSAIKKKNTEIRNIKKETEDKSFHCFNGNHFSPSNKTTSVPHISQKRTAPGPVVGWPPVRSFRKNLASTSSSKLGNESSHGGQINKSDDGEKQVETKKEGMFVKINMDGVPIGRKVDLNAYNSYEQLSFVVDKLFRGLLAAQRDISDGQGEEKPIIGLLDGKGEFTLTYEDNEGDKMLVGDVPWQMFVSSVKRLRVIKSSEISSALTFGCSKQEKMMH
partner,setting,how to read,positive tests
"ARF17 (Arabidopsis thaliana, UniProt Q84WU6)",weak activation fusion,reference: out of 3 tests,0
"ARF22 498-598 (Arabidopsis thaliana, UniProt Q9C8N7)",,reference: out of 2 tests,1
"ARF2 727-859 (Arabidopsis thaliana, UniProt Q94JM3)",,reference: out of 4 tests,0
"ETT (Arabidopsis thaliana, UniProt O23661)",,reference: out of 2 tests,0

# Block 3 — technique: protein-binding microarray; form: double-stranded DNA, one strand shown; sample: in vitro; concentration: not given; reading: higher = stronger binding
# Target: Max-binding protein MNT, bHLH-zipper, MAX partner unstated (MNT, Homo sapiens, UniProt Q99583, residues 220-300)
# Notes: k-mer, scored over probes, only values ≥0.25
# Target sequence (chain): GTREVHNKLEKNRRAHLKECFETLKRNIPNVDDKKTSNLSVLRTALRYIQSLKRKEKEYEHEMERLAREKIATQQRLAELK
Sequence,E-score
CGTGTCTC,0.366
ACATGGGC,0.263
AGACCCCA,0.32
CATGGACA,0.338
GTGGCACA,0.291
ATGCAGCC,0.279
CGGTGCAC,0.259
GACCCACC,0.265

# Single results of other studies
SMILES,target,test,setting,how to read,measurement,result
CCCC(=O)Oc1ccc2[nH]c(C(=O)c3cc4ccccc4[nH]3)cc2c1,"Cyclin-dependent kinase 4, with cyclin D3 (CDK4, Homo sapiens, UniProt P11802)","enzyme activity, inhibitor",0.5 µM,reference: control,remaining activity,103%
CC(=O)N1CCC(c2ccc(C(=O)NC3=NCCN3)cc2C(F)(F)F)CC1,"RET (Homo sapiens, UniProt P07949, V804L)","cell-free assay, competition with immobilised ligand",1 µM,,remaining binding,100%

# Excerpt of the above (block 1):
Sequence,6-mer enrichment (R)
CUGUGC,0.8
AAGCUU,0.578
GAGUGC,1.53
